# Assay results pooled from the literature.
# Protocols differ between the studies behind these lines.
# Matrix: plasma
# Route: oral
SMILES,system,setting,AUC(0-inf)
CNC(=O)c1ccccc1Sc1ccc2c(/C=C/c3ccccn3)n[nH]c2c1,human,"7 mg, single dose, fed",181 ng·h/mL
CCOc1ccc(Cc2cc([C@@H]3S[C@H](CO)[C@@H](O)[C@H](O)[C@H]3O)c(OC)cc2C)cc1,human,"3 mg, single dose, fasted, healthy volunteers",1000 ng·h/mL
CS(=O)(=O)n1cc2c(n1)CN([C@H]1CO[C@H](c3cc(F)ccc3F)[C@@H](N)C1)C2,male human,"25 mg, single dose, fasted",25.1 µM·h
CC(C)(Sc1ccncc1-c1ccc(C#N)c2ccccc12)C(=O)O,male human,"15 mg, single dose, fasted",252 ng·h/mL
C[C@@H]1CCC[C@H](n2cnc(-c3cc(Cl)ccc3-n3cc(Cl)nn3)cc2=O)c2cc(ccn2)-c2c(cnn2C(F)F)NC1=O,human,"500 mg, single dose, fasted, healthy volunteers",21300 ng·h/mL
COc1cccc(-c2ccc(NC(=O)C3=C(C(=O)O)CCC3)c(F)c2)c1,male human,"10 mg, single dose, fed, healthy volunteers",53900 ng·h/mL
O=C(c1nc2n(n1)[C@H](c1ccccc1)C[C@@H]2F)C1CC1,human,"150 mg, single dose, fasted, healthy volunteers",27800 ng·h/mL
Nc1ccc(-c2nc([C@H]3CCc4cc(-c5cc(Cl)ccc5-n5cnnn5)cc(=O)n43)c(F)[nH]2)c(F)n1,human,"5 mg, single dose, fasted",948 ng·h/mL

# Excerpt of the above:
SMILES,system,setting,AUC(0-inf)
CNC(=O)c1ccccc1Sc1ccc2c(/C=C/c3ccccn3)n[nH]c2c1,human,"7 mg, single dose, fed",181 ng·h/mL
